Results of several laboratories.
Each numbered part is a random draw from the data of one study; scales do not carry over between parts. Positions count from the first letter of the parent shown.

Study 1
Target: Histone acetyltransferase KAT6A, winged helix 2, GST fusion (KAT6A, Homo sapiens, UniProt Q92794, residues 85-181)
Method: protein binding microarray
Molecule type: double-stranded DNA, one strand shown
Matrix: in vitro
Tested at: not given
Notes: 8-mer, flanks averaged, mean of 2 arrays, mostly near background
Reference: not given
Reading: higher = stronger binding
Target sequence (chain): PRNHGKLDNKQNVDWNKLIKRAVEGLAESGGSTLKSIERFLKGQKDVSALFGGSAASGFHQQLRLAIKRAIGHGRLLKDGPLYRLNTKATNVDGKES
Oligonucleotide	E-score
GATGTTCA	-0.199
AGTCTTCA	-0.0823
CAGGTATG	-0.0256
AGTGCACT	-0.0169
CGCCAGCG	0.177
ACGGACAA	0.102
AAACCAAT	0.031
AATTTTTG	-0.0767
ACATTTCC	0.0228
GAGTTGCC	0.106
CACCATGG	-0.0786
AATTAGTC	-0.0672
AGCGAGTG	0.25
GACCTCCA	0.033
CAGGTATA	-0.101
CGCTTTTC	0.0894
ACGTCCTC	-0.0847
ATCGAACA	0.161
GACTCGCA	0.125

Study 2
Target: Interferon regulatory factor 5, full length, phosphomimetic (IRF5, Homo sapiens, UniProt Q13568-2, residues 1-514, S451D/S453D/S456D/S462D)
Method: protein-binding microarray
Molecule type: double-stranded DNA, one strand shown
Matrix: in vitro
Tested at: 940 nM top
Notes: 60-bp whole probe
With: salmon DNA 0.4 mg/ml
Reference: random background probes
Reading: higher = stronger binding
Shared flanks, not repeated: GCCTAGCAC … GTCTTGATTCGCTTGACGCTGCTG
Oligonucleotide	fitted relative affinity
TTAGCTATCGACTATCGGTTAGTGCTA	0.494 z-score
TTATGTCTCGGTATCGGTTAGTGCTAG	6.59 z-score
GACGGACTGGACTTTGGGGACGTGCTA	-0.507 z-score
CCCTGGCTCCCTATAAAAGGGTGCTAG	-0.187 z-score
CCGCCGCCTGGCTGGGGGATGTGCTAG	-0.278 z-score
GAGGGACTGCTTCTCCTGACGTGCTAG	-0.321 z-score
TTAGATATCAGACTTGATTAGTGCTAG	-0.195 z-score
CACGGTATCCTTTTCCTGACGTGCTAG	0.508 z-score
TTAGGTATCGGTCGCGGTTAGTGCTAG	9.13 z-score
TCCTCTTTCACTGGTCCTCATGTGCTA	2.22 z-score
TTAGTACTGGACACTGGGTTAGTGCTA	-0.445 z-score
TTAGGACTGCGACTGCTTTAGTGCTAG	-0.687 z-score
TTAGGTTTCCTTATCCTTTGGTGCTAG	1.66 z-score
GACGGATTGGACACTGGGGACGTGCTA	-0.358 z-score
GACGGTTTCGACACTGGGTACGTGCTA	6.88 z-score
GACGGAATCGGGACTGGGGACGTGCTA	-0.335 z-score
TTAGGTCTCGTACTGCTTTAGTGCTAG	0.81 z-score
TTAGGTTCCGATTTCGGTTAGTGCTAG	2.44 z-score
GCCGATTTCAGACTGGAGACGTGCTAG	-0.2 z-score
GACGGTTTCGGACGGGGGACGTGCTAG	8.33 z-score
GACGGACTGCTTCTCCGGACGTGCTAG	-0.154 z-score
TTAGGACTGGGACTGGCTTAGTGCTAG	-0.353 z-score
GACGAACTGGGGTTTCAAGACGTGCTA	0.0577 z-score
TCAAAAAAAAAAAACTGTACTGTGCTA	-0.0109 z-score
AACATACTCGTTTACATTTTGTGCTAG	0.419 z-score

Study 3
Target: RNA binding protein fox-1 homolog 2, RRM domain, GST-SBP tag (RBFOX2, Homo sapiens, UniProt O43251-10, residues 100-194)
Method: RNA Bind-n-Seq
Molecule type: RNA
Matrix: in vitro
Tested at: 365 nM
Notes: natural RNA segment, single round, ends assumed
Reference: no-protein control
Reading: higher = stronger binding
Residues (chain): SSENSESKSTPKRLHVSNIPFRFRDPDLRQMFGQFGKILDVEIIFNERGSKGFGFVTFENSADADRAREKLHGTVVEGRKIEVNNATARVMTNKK
Oligonucleotide	RBNS enrichment (R)
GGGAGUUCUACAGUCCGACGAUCUAAAACAGUCACGAACCAAACCUGUGCAGUCCCUUGUUCCAGAUCACCUGGAACUGGAUUGGGAAGAGAACAGGACUUGGUGGCCAGGACCGCUCAGAGAGCCAUGGUUGUGGAAUUCUCGGGUGCCAA	0.166
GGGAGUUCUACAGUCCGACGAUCCCAUCUAUUCUUGCAGCCAUCUCAGCCAGGGUCUAUGUCUUAGGACCUUCCUCCGGCCUUCCAUGAGAAGCAGCCACAGGGGGCCUGGUUUCCUCCUAAGGCCCUUCUCUUGGAAUUCUCGGGUGCCAA	0.53
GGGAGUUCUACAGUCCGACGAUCACCAAAUUAUUUUAAGGUGCAUAGCACAAAGAUGUAUGCAAACAACUGUUUUAAAUCAGGUCUGAUAACUGAUUUAAAUAUAAAUAAUACUAGGAACAAGUAGUUUCCAUUGGAAUUCUCGGGUGCCAA	1.18
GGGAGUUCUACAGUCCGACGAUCCUUCCUCUGCUAAAUUGAUGUUGAUGCAAUCCUUACAAUGAUUGCUUUUAAAAUUUUAAGAUAGGAAAGAAAUCUAUAGAAAGUGUUCUGUUACAAAAUGUAACUGUUACUGGAAUUCUCGGGUGCCAA	0.44
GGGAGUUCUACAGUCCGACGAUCAAAGCAGUCAGUUUCAGAAGAUACUUUUUAUCAAAAAAGAUGGCAGGUUUAACAUUAUACCUUUUGGUUUUUGCCCAACAUUUGAUUUAAUCUAAAGCAAGAAUAUAAAAUGGAAUUCUCGGGUGCCAA	0.484
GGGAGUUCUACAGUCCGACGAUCGUCCCUUUCUGCAGAGGAAGGGAUGCUCGCAGGGUGGCAGUGGCCCAGCCCCAGCCUCAGGGACGGGGAGGGAGAGCCCCCUCUGGGCCCAGCAGGCAGGUGUUCUGAGGUGGAAUUCUCGGGUGCCAA	0.135
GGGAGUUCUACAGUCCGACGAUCUUAAGCCCAGAGAUCCUGCUUGAGCCCUGGACUCAUCUUGGGAAGGGCCAUGGGAGGUCCUGGCUAGAGUUCUGCCCAACCUUGACCAACCCCAGCAAUUUUUCCAAAAGUGGAAUUCUCGGGUGCCAA	0.294
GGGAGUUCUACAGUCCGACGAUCUGAGGCAGGAGAAUUGCUUAAACCUGGGAGGUGGAGGCUGCAGUGAGCCAAGAUCGUGCCACUGCACUCCAGCCUGAGUGACAGAGCAAGACUCCGUCAAAAAAAAAAAAUGGAAUUCUCGGGUGCCAA	0.703
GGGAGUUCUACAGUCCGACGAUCCUCCUCCCCAGAGCACCCCCUGCCAUCAGGGGGGUUGAAAUCCCUCUCCCCCAGGAGCCCUGCUGCUUUGCUUGGUGGUAGGGCAGGAGAGCAAACAAACAGUCAUGGUCUGGAAUUCUCGGGUGCCAA	0.358
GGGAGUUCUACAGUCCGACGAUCCAUCUCUCCUCCUACAGCCUUAAUGGCUGCUUGCUGCCAUAUGUGACAAAUCACCACCACCAGUGUUAAGUGCUUCUGGAUUCAUGGGUGAGUUCCCUGGGCAGCCCCCAUGGAAUUCUCGGGUGCCAA	0.311
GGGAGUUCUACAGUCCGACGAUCUGUAAGAAUGUGAAUUUGAAUGUAUUUUGAAUUGUAAGAGCAAAAGAACGUUUUUGUACAAUUUUUUUUCAUUUAAUUGGAAUGAUCUUCAGGUUUCUACAAAUAGGGUAUGGAAUUCUCGGGUGCCAA	0.586
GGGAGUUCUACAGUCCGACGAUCGACCCUCCUCGGAGCGUCCAGAUCCCCUCCUGCUCUGCUCUAUUACCUACUAGUGGUCCCUGGCAGCUGUGGGCAAGGCCUGGGUAGUCAGACUGUUAACACCACAGUCCUGGAAUUCUCGGGUGCCAA	0.216

Study 4
Target: ABI1, truncated, D143A, DHFR fusion (Arabidopsis thaliana, UniProt P49597)
Method: DHFR PCA, dose-response
Matrix: yeast
Notes: Hill fit, mean, not affinity
With: (+)-ABA, dose series
Reading: lower = more sensitive
Parent: PYL1, truncated, DHFR fusion (Arabidopsis thaliana, UniProt Q8VZS8); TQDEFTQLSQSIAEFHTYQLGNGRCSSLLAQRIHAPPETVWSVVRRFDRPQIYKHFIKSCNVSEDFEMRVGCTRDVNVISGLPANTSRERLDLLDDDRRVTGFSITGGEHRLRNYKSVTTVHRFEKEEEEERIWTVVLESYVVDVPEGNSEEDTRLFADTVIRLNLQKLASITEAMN
Variant	ABA EC50 [µM]
D95E	60.1
M68C	2.86
F15R	66.9
I162S	709
R111L	18.3
K126N	1.36
N22K	4.14
E139L	33.9
T17K	10.2
A35G	49.1
E152P	16.9
T6M	5.12
D3L	5.85
D3K	6.44
V118A	89.4
T160L	2.9
T160E	340
N149R	466
T86I	94.6
S104K	153
V118T	1.64
L93Y	3.96
E129W	5.2
S27H	2.14
E129C	2.78

Study 5
Target: Sal-like protein 4, full length isoform A (SALL4, Homo sapiens, UniProt Q9UJQ4, residues 1-1053)
UniProt Q9UJQ4, sequence (whole entry, looked up): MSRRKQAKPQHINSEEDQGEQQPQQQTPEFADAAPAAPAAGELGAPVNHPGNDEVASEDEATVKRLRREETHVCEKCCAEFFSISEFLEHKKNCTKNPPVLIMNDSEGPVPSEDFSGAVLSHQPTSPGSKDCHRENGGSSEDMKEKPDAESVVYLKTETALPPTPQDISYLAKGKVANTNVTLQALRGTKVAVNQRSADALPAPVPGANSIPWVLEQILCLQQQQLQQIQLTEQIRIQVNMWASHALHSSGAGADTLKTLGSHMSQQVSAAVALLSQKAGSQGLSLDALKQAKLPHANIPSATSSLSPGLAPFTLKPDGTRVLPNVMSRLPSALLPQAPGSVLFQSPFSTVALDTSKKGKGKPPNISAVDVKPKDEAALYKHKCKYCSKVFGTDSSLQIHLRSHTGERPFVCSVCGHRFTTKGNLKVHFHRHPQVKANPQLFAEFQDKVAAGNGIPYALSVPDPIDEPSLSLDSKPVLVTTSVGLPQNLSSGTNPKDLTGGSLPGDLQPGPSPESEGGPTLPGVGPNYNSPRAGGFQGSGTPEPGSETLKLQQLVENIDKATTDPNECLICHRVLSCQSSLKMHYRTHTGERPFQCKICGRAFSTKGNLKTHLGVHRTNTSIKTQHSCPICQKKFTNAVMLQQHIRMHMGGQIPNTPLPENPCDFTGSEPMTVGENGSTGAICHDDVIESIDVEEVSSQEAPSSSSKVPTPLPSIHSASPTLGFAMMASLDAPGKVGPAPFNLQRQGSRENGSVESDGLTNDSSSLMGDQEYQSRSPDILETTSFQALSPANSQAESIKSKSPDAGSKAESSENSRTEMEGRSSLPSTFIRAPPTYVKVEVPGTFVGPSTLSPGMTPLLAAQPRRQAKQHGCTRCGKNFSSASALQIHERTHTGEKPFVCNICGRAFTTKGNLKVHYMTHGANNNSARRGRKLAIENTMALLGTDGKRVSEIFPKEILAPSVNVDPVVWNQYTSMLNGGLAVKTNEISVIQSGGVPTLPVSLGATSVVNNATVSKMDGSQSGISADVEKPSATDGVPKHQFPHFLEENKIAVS
Method: universal PBM
Molecule type: double-stranded DNA, one strand shown
Matrix: in vitro
Tested at: 600 nM
Notes: 8-mer, flanks averaged, mean of replicates
Reading: higher = stronger binding
Oligonucleotide	E-score
AAAATCTA	0.294
CGTTCTTA	0.003
AAAGGTGC	-0.0146
TCGGCCAA	-0.00983
AACTATGC	0.215
CGTCCAAC	0.0398
GATCGCGA	0.0282
TGCGGACA	-0.114
GTTGTCTA	0.178
ATTTGGCG	0.136
CAACATCG	0.0919
GGCTACAC	-0.0126
GAGTAAAA	0.156
ACCTACCA	-0.12
ACAGAGCA	0.158
CGAAAGCC	-0.227
CCCCAGGC	-0.333
GTGGACCA	-0.242
CCTGAAGC	-0.251
CATGTTAG	0.106
CTCGAAAA	0.0735
CATGCTTA	0.144
TCCCAGAA	-0.0373
AGGCAAGC	-0.181

Study 6
Target: Prothrombin, mature alpha-thrombin (F2, Homo sapiens, UniProt P00734)
Method: aptamer microarray, sandwich
Molecule type: DNA with 2'F-ANA
Matrix: in vitro
Tested at: 200 nM
Notes: whole 15-mer aptamer, many near background
With: Cy3 exosite-II aptamer, 400 nM
Reading: higher = stronger binding
Oligonucleotide: GGTTGGTGTGGTTGG
Modification	mean fluorescence intensity
2'F-ANA at 1 2 4 6 7 8 10 12 13 14 15	46.2 a.u.
2'F-ANA at 5 6 8 12 14 15	49.2 a.u.
2'F-ANA at 1 2 3 7 8 10 11 12 13 14	52.8 a.u.
2'F-ANA at 1 2 5 6 7 10 11 13	48 a.u.
2'F-ANA at 5 13 14 15	59.4 a.u.
2'F-ANA at 4 7 8 10 12 13	111 a.u.
2'F-ANA at 2 3 4 7 8 13 15	587 a.u.
2'F-ANA at 3 8 9 13 15	901 a.u.
2'F-ANA at 1 2 4 5 12 14 15	48.3 a.u.
2'F-ANA at 1 2 3 4 7 9 10 11 12 13 14	58 a.u.
2'F-ANA at 1 3 4 6 7 9 10 11 12 13 14	52.2 a.u.
2'F-ANA at 2 3 5 6 7 13 15	80.9 a.u.
2'F-ANA at 1 5 7 8 9 11 12	103 a.u.
2'F-ANA at 3 4 5 7 8 12 13 15	134 a.u.
2'F-ANA at 1 6 7 9 10 11 13 14	46.9 a.u.
2'F-ANA at 2 4 6 8 9 10 11 12 14	75.3 a.u.
2'F-ANA at 1 2 4 5 10 12 14 15	43.6 a.u.
2'F-ANA at 1 9 11 13 14 15	107 a.u.
2'F-ANA at 4 6 7 9 12 15	420 a.u.
2'F-ANA at 1 3 4 5 7 8 10 13	46.5 a.u.
2'F-ANA at 3 5 6 8 9 12 13 14	59 a.u.
2'F-ANA at 3 4 5 8 10 12 14 15	67.6 a.u.
2'F-ANA at 2 3 5 7 8 9 13 14 15	64.9 a.u.
2'F-ANA at 1 2 5 6 9 13 15	47.4 a.u.
2'F-ANA at 4 6 7 9 10 13 14	56.3 a.u.

Some of these lines once more (study 4):
Variant	ABA EC50 [µM]
F15R	66.9
I162S	709
R111L	18.3
K126N	1.36
N22K	4.14
E139L	33.9
T17K	10.2
A35G	49.1
E152P	16.9
T6M	5.12
D3L	5.85
